Assay results pooled from the literature.
Numbered parts are unrelated; each lists some results of a single study.

Set 1 — method: RNA Bind-n-Seq; molecule type: RNA; sample: in vitro; concentration: 200 nM; setting: whole 134-nt RNA, ends assumed; together with: 150 mM LiCl; baseline: input library; reading: higher = stronger binding; each molecule: 7-deaza-guanosine replaces G
Target: Fragile X messenger ribonucleoprotein 1, C-terminal low-complexity region (Fmr1, Mus musculus, UniProt P35922)
Constant ends, left off below: GGGAGUUCUACAGUCCGACGAUC … UGGAAUUCUCGGGUGUCAAGG
Oligonucleotide | log2 enrichment
AAGUCCUGUGCUACACAUCGUAUGUACCGAAUCGGAAAAAAAGGAAAGGUUUUUGGAAAGUAUUAUGUUACGCCGUUCGGAUCUGCACUU | -2.65
ACCAUGCAGGUGGGCAUCUUUGGGAAGUGGGGCAAGGGGGGGAUAGGGAGGGGGGUAACACUUUGGGAACAGGUGGUCCCAGGUCGGUUC | 1.49
UGAAGACUAUGAGACUGCUCUAUCAGGAAAGGAAGCCCUUUCGGCUGCGCUGCGCUCACAAAACCUCACCAAGAGUACAGAGAACCACAG | -0.331
GUCCUGUGCUACACAUCGUAUGUACCGAAUCGGGGCCCCCGGGGCCCCCGGCCCCCGGGAAAGUAUUAUGUUACGCCGUUCGGAUCUGCA | -1.78
UCCUGUGCUACACAUCGUAUGUACCGAAUCGGGUUUUUUUGGGAAAAAAAGGGAAAGGGAAAGUAUUAUGUUACGCCGUUCGGAUCUGCA | -1.78
ACCAUGCAGGUGGGCAUCUUUGGGAAGUGGGGCAAGGGGGGGAUAGGGAGGGGGGUAACACUUUGGGAACAGGUGGUCCAAGGUCGUUUC | 1.8
UAACUUUAGAGGAGGAUCUGAUGGAUAUGGCAGUGGACGUGGAUUUGGGGAUGGCUAUAAUGGGUAUGGGGGAGGACCUGGAGGUGGCAA | 0.402
UUGACAUGAAGACAAUGGAGACUGCAGAGAAACUGGCUAGAUUUGUUGCUCAGGUGGGACCAGAGAUCGAACAAUUCAGCAUAGAAAACA | -1.64

Set 2 — method: protein-binding microarray; molecule type: double-stranded DNA, one strand shown; sample: in vitro; concentration: 2540 nM top; setting: 60-bp whole probe; together with: salmon DNA 0.4 mg/ml; baseline: random background probes; reading: higher = stronger binding; constant ends, left off below: GCCTAGCAC … GTCTTGATTCGCTTGACGCTGCTG
Target: Interferon regulatory factor 3, full length, phosphomimetic (IRF3, Homo sapiens, UniProt Q14653, residues 1-427, S386D/S396D/S398D/S402D/T404D/S405D)
UniProt Q14653, sequence (whole entry, unmodified, looked up): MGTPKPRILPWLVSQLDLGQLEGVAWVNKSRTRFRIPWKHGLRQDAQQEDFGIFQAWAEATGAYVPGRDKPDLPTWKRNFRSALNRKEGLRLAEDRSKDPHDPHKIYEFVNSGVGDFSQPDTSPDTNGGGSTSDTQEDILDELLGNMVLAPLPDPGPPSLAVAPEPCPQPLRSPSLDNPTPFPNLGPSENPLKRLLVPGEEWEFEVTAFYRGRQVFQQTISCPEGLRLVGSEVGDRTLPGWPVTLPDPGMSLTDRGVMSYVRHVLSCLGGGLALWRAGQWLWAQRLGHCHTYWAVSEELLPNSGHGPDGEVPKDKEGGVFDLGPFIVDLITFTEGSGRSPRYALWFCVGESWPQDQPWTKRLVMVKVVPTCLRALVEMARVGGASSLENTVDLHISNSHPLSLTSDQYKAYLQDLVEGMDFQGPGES
Oligonucleotide | fitted relative affinity [z-score]
TTTCTTTTATGCTCTTTCTACGTGCTA | 3.4
TCACTTCTAATATTCATACTGTGCTAG | 1.86
GACGGCCTCGGACTGGGGACGTGCTAG | -0.886
GACGGTATCGGCTTTCGGGACGTGCTA | 1.36
GACGGTTTCATTTCCCTGACGTGCTAG | 5.38
GACGGTCTCCATCTCCTGACGTGCTAG | 2.84

Set 3 — method: universal PBM; molecule type: double-stranded DNA, one strand shown; sample: in vitro; concentration: 600 nM; reading: higher = stronger binding
Target: Sal-like protein 4, full length isoform A (SALL4, Homo sapiens, UniProt Q9UJQ4, residues 1-1053)
UniProt Q9UJQ4, sequence (whole entry, looked up): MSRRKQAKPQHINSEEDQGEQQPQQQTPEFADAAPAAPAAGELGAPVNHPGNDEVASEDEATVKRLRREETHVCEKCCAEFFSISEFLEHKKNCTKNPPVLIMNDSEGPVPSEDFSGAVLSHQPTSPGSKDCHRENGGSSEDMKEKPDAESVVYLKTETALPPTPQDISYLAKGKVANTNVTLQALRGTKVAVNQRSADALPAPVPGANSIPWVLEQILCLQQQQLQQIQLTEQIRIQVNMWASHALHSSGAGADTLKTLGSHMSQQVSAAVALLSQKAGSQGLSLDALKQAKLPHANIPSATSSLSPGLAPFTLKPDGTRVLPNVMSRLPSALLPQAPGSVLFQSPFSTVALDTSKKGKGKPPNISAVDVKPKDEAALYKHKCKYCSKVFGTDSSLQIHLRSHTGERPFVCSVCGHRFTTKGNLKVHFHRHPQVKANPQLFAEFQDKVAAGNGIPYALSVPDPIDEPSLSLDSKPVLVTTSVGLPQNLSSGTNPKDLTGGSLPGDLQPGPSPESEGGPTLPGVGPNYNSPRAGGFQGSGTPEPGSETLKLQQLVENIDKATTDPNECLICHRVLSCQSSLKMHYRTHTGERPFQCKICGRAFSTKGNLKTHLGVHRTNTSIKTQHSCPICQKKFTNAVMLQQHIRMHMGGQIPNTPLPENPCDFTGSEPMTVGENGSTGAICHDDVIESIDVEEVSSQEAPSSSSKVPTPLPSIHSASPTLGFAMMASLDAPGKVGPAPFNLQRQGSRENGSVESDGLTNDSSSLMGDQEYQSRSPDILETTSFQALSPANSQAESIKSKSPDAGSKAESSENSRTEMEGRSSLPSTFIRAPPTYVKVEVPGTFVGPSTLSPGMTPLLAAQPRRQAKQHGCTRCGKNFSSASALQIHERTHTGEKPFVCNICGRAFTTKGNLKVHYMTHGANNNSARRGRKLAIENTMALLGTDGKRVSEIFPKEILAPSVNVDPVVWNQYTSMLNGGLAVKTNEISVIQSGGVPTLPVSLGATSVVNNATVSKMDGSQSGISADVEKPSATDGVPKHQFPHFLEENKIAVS
Setting: 8-mer, flanks averaged, mean of replicates
Oligonucleotide | E-score
TTAATCAA | 0.334
AATGCCAC | -0.113
GTGCTGTA | -0.0963
CCTCAATC | 0.014
ACATCTAT | 0.281
GTAATGAA | 0.211
GCAACCGA | -0.145
AGTTGCCG | -0.285
ACCCATAG | -0.175
ATCCTTCG | -0.0841

Other studies, line by line
Molecule | target | test | test system | conditions | scale | endpoint | result
PhoQ, residues 284 288 289 292 302 303 SMYGEC | PhoP, residues 12 14 15 18 19 SMASL (Escherichia coli, UniProt P23836) | Sort-seq, refers to: YFP reporter | E. coli | PhoQ-PhoP variant library, together with: 10 µM Mg2+ | baseline: high Mg2+ state, higher = stronger signaling | fold induction | 5.83

A few entries again (set 3):
Oligonucleotide | E-score
TTAATCAA | 0.334
AATGCCAC | -0.113
GTGCTGTA | -0.0963
CCTCAATC | 0.014
